Measurements gathered from unrelated publications.
A part holds a random share of what one study measured. Several values in a cell are separate wells, animals, samples, runs or records.
Chain of UniProt Q9H0K1 (whole entry, looked up): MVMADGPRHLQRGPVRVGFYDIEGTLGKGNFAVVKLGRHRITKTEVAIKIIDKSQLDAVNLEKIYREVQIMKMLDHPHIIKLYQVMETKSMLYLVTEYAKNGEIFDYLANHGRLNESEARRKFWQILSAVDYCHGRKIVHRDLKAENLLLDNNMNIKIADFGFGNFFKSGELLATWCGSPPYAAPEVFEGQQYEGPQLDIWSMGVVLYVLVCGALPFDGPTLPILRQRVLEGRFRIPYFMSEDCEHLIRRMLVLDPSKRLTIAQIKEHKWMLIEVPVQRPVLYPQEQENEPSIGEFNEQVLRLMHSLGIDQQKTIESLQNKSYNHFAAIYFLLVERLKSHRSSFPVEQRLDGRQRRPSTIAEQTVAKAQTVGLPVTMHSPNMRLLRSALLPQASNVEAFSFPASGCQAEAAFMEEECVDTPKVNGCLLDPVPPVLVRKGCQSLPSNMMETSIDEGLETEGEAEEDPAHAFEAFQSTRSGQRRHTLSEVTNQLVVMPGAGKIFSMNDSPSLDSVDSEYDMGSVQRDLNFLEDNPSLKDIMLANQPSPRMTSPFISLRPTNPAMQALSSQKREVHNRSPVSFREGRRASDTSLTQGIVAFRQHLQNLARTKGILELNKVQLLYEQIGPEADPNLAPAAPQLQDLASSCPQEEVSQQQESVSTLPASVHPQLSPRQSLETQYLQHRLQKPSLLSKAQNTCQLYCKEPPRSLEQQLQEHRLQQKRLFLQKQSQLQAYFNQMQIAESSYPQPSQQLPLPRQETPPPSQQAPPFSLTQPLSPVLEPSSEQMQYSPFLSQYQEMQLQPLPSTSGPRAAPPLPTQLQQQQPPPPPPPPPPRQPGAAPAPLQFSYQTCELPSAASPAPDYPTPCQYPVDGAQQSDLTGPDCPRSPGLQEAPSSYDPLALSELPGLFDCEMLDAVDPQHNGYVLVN
Chain of UniProt Q9NRP7 (whole entry, looked up): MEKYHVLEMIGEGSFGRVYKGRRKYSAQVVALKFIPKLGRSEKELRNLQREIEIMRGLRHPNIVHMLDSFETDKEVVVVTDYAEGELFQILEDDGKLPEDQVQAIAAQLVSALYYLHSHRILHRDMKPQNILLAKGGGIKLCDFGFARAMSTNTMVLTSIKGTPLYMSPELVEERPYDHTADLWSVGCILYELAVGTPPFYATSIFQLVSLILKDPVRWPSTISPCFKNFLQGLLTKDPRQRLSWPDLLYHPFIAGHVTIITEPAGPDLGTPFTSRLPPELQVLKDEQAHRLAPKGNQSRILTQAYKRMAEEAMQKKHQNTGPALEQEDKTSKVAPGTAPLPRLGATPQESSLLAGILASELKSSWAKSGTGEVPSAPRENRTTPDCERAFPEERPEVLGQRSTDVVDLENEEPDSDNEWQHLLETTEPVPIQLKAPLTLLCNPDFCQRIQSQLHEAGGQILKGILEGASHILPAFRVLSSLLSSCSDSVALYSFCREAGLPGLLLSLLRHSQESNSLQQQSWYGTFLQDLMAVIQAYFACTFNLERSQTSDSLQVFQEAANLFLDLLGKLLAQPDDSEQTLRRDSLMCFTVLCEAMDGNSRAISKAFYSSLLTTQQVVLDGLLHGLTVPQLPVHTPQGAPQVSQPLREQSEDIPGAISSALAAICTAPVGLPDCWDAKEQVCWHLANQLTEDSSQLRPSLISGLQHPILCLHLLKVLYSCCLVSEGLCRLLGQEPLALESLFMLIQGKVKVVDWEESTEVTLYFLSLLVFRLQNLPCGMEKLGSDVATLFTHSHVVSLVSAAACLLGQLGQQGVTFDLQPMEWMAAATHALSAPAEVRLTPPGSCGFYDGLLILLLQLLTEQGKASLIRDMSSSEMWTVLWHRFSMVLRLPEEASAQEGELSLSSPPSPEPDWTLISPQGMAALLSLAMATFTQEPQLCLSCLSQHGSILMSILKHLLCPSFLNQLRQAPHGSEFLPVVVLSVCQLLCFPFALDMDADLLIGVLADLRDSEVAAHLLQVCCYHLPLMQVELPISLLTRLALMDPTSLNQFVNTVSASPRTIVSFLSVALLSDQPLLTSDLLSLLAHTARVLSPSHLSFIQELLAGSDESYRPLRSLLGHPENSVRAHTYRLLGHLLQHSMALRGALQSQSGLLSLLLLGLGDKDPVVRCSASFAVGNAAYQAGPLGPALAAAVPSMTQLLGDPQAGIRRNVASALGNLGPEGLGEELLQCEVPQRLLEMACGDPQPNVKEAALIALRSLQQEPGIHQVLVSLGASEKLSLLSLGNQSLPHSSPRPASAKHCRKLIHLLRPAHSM
Chain of UniProt Q9H1R3 (whole entry, looked up): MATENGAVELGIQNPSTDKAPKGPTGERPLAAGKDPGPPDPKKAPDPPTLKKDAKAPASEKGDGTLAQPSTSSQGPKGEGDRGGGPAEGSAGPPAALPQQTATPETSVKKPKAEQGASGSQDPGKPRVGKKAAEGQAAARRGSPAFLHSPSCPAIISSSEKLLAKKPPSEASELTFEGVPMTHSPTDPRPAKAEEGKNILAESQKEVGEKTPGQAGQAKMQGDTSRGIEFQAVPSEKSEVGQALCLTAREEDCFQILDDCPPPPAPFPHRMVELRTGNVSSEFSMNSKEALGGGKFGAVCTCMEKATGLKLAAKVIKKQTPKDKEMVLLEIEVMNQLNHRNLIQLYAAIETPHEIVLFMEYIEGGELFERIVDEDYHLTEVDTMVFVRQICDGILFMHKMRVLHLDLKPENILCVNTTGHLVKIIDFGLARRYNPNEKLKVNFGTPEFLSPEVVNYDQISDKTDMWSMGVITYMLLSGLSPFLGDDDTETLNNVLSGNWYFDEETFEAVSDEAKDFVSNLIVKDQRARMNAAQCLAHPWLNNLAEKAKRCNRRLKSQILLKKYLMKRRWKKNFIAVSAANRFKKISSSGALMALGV
Chain of UniProt Q14680 (whole entry, looked up): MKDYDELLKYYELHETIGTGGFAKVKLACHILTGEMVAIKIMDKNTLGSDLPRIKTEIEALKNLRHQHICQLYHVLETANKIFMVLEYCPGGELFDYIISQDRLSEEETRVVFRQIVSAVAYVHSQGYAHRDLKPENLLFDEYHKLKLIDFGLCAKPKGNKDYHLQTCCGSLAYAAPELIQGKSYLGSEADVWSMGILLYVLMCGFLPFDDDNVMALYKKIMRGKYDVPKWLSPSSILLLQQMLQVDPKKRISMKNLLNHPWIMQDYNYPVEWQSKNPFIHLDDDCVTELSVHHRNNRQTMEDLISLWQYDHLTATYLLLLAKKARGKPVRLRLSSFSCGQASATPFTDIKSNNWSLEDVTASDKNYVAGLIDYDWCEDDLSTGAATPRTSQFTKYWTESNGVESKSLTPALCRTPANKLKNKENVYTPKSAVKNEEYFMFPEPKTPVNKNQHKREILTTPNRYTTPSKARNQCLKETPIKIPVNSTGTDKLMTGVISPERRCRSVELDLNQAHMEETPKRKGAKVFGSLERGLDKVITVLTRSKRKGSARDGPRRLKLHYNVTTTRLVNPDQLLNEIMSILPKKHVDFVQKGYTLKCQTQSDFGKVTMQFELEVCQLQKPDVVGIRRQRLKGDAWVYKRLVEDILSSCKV

Block 1
Target: Dual specificity protein kinase CLK4 (CLK4, Homo sapiens, UniProt Q9HAZ1)
Chain of UniProt Q9HAZ1 (whole entry, looked up): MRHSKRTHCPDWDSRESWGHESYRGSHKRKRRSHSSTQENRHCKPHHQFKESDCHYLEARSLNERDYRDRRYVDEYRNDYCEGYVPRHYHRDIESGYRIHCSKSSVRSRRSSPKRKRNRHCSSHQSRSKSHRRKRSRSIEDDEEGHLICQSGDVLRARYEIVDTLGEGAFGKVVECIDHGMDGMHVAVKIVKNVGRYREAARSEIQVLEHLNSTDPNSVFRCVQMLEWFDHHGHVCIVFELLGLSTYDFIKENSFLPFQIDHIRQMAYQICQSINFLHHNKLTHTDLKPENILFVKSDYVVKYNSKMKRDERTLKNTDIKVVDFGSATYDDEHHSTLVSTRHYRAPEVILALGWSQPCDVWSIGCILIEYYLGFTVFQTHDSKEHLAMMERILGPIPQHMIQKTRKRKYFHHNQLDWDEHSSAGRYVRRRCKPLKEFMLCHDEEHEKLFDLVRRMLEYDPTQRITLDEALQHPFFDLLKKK
Effect on: enzyme activity
Action: inhibitor
Tested at: 0.5 µM
Baseline: control
Measurement: remaining activity
COc1cc2nccc(Oc3ccc(NC(=S)NC(=O)c4ccccc4C)cc3)c2cc1OC: 87.8%
COc1ccc(OC)c2c(=S)c3ccccc3[nH]c12: 104%
COc1ccc(C(=O)Nc2sc3c(c2C(N)=O)CCCC3)cc1OC: 86.8%
O=C(Nc1cccc(Nc2cc(Nc3cccc(C(F)(F)F)c3)ncn2)c1)C1CC1: 97.3%
COc1cc2ncnc(Nc3ccc(Oc4ccccc4)cc3)c2cc1OC: 122%
OCC(O)CCON=C1C(c2c(O)[nH]c3ccccc23)=Nc2ccccc21 (stereo not drawn): 6.19%
Nc1ccc2ncnc(NCCc3ccc(Oc4ccccc4)cc3)c2c1: 94.6%
Nc1[nH]nc2nc3ccccc3nc12: 86.9%
O=S(=O)(c1cccc2cnccc12)N1CCCNCC1: 97.1%
CN(C)c1ccc(C=C2C(=O)Nc3ccccc32)cc1: 94.1%
C#Cc1cccc(Nc2ncnc3cc(OCCOC)c(OCCOC)cc23)c1: 101%
O=c1c2ccccc2[nH]c(=S)n1CCN1CCC(=C(c2ccc(F)cc2)c2ccc(F)cc2)CC1: 103%
Cc1ccc(Nc2nccc(N(C)c3ccc4c(C)n(C)nc4c3)n2)cc1S(N)(=O)=O: 91.7%
Nc1ncnc2n[nH]c(Nc3ccc(F)cc3)c12: 88.7%
O=C1NC(=O)C(c2cn(CCCO)c3ncccc23)=C1c1cnccn1: 100%
CO[C@H]1C[C@@H]2CC[C@@H](C)[C@@](O)(O2)C(=O)C(=O)N2CCCC[C@H]2C(=O)O[C@H]([C@H](C)C[C@@H]2CC[C@@H](O)[C@H](OC)C2)CC(=O)[C@H](C)/C=C(\C)[C@@H](O)[C@@H](OC)C(=O)[C@H](C)C[C@H](C)/C=C/C=C/C=C/1C: 116%
CC(C)[C@H](CO)Nc1nc(Nc2cc(N)cc(Cl)c2)c2ncn(C(C)C)c2n1: 16.5%
CCOC(=O)c1c(C)[nH]c(/C=C2\C(=O)Nc3ccccc32)c1C: 94.3%
Cc1cccc(-c2[nH]c(C(C)(C)C)nc2-c2ccc3c(c2)OCO3)n1: 95.8%
Cn1c2ccccc2c2c3c(c4c5ccccc5n(CCC#N)c4c21)CNC3=O: 66.2%
O=C(CCCc1ccc(-c2ccccc2F)cc1)Nc1ccc(O)cc1: 103%
COc1cc2ncnc(Nc3ccc(F)c(Cl)c3)c2cc1OCCCN1CCOCC1: 107%

Block 2
Organism: Sarcocystis neurona
Effect on: parasite growth
Tested at: 10 µM
Time: 96 h
Notes: second screen
Baseline: untreated
Measurement: log2 fold change
CCN1CCC[C@H]1CNC(=O)c1cc(S(N)(=O)=O)ccc1OC: 0.08
CC#C[C@]1(O)CC[C@H]2[C@@H]3CCC4=CC(=O)CCC4=C3[C@@H](c3ccc(N(C)C)cc3)C[C@@]21C: -0.13
O=C(CCCN1CCC(O)(c2ccc(Cl)cc2)CC1)c1ccc(F)cc1: -0.79
Cc1occc(=O)c1O: 0.3

Block 3
SMILES: CCOc1ccc(Nc2c3c(nc4ccccc24)CCC3)cc1
Organism: Leishmania donovani
Measurement: inhibition
parasite killing; DD8, promastigotes; 0.033 µM, 24 h: 6% and 4%
parasite killing; DD8, intracellular amastigotes; 40 µM, 96 h: 100%
parasite growth, high-content imaging; MHOM/IN/80/DD8, amastigotes in THP-1 cells; 80 µM: 100% and 101% and 102%
parasite killing; DD8, intracellular amastigotes; 8 µM, 48 h: 99% and 98% and 96%

Block 4
Cell line: HuT78
Tested at: 2 µM
Time: 48 h
Baseline: untreated
Measurement: viability
CCOC(=O)c1cnc2ccc(-c3cncc(NS(=O)(=O)c4ccccc4)c3)cn12: 7.5%
CN1CCN(CCOc2cc(OC3CCOCC3)c3c(Nc4c(Cl)ccc5c4OCO5)ncnc3c2)CC1: 127%
Cc1ccc(-n2nc(C(C)(C)C)cc2NC(=O)Nc2ccc(OCCN3CCOCC3)c3ccccc23)cc1: 99.9%
COc1cc(C(=O)NC2CCN(C)CC2)ccc1Nc1ncc2c(n1)N(C1CCCC1)CC(F)(F)C(=O)N2C: 6.78%

Block 5
Species: human
Matrix: microsomes or S9
Tested at: 2 µM
Time: 0.5 h
Measurement: remaining compound
COc1ccc(C)cc1NC(=O)c1cc(S(=O)(=O)N2CCOCC2)cn1C: 42.5%
Cc1cc(C)c(S(=O)(=O)NC(CCC(=O)O)C(=O)O)cc1N(C)S(C)(=O)=O (stereo not drawn): 82.5%
Cn1nc(C2CCN(C(=O)[C@H]3CC(=O)NC(=O)N3)CC2)n(-c2ccccc2)c1=O: 80.6%
CC(Nc1ccn(CCS(C)(=O)=O)n1)c1nc(C(C)(C)C)no1 (stereo not drawn): 76.1%
c1ccc2c(-c3noc4c3CNCC4)cccc2c1: 53%

Block 6
SMILES: CN(C)c1ncnc(-c2ccc3nc(Nc4cc(CN5CCN(C(=O)CC(F)(F)F)CC5)ccn4)[nH]c3c2)c1Cl
Effect on: cell-free assay
Technique: competition with immobilised ligand
Tested at: 1 µM
Measurement: remaining binding
Serine/threonine-protein kinase SIK2 (SIK2, Homo sapiens, UniProt Q9H0K1): 59%
Maternal embryonic leucine zipper kinase (MELK, Homo sapiens, UniProt Q14680): 95%
Serine/threonine-protein kinase 36 (STK36, Homo sapiens, UniProt Q9NRP7): 98%
Mitogen-activated protein kinase kinase kinase 1 (MAP3K1, Homo sapiens, UniProt Q13233): 100%
Non-receptor tyrosine-protein kinase TYK2, JH1 (TYK2, Homo sapiens, UniProt P29597): 51%
Myosin light chain kinase 2, skeletal/cardiac muscle (MYLK2, Homo sapiens, UniProt Q9H1R3): 100%

For quick reference, copied from above (block 1):
CN(C)c1ccc(C=C2C(=O)Nc3ccccc32)cc1: 94.1%
CCOC(=O)c1c(C)[nH]c(/C=C2\C(=O)Nc3ccccc32)c1C: 94.3%
CO[C@H]1C[C@@H]2CC[C@@H](C)[C@@](O)(O2)C(=O)C(=O)N2CCCC[C@H]2C(=O)O[C@H]([C@H](C)C[C@@H]2CC[C@@H](O)[C@H](OC)C2)CC(=O)[C@H](C)/C=C(\C)[C@@H](O)[C@@H](OC)C(=O)[C@H](C)C[C@H](C)/C=C/C=C/C=C/1C: 116%
COc1cc2ncnc(Nc3ccc(F)c(Cl)c3)c2cc1OCCCN1CCOCC1: 107%
